Published values collected from several papers.
Numbered parts are unrelated; each lists some results of a single study.
Sequence of UniProt P15056 (whole entry, unmodified, looked up): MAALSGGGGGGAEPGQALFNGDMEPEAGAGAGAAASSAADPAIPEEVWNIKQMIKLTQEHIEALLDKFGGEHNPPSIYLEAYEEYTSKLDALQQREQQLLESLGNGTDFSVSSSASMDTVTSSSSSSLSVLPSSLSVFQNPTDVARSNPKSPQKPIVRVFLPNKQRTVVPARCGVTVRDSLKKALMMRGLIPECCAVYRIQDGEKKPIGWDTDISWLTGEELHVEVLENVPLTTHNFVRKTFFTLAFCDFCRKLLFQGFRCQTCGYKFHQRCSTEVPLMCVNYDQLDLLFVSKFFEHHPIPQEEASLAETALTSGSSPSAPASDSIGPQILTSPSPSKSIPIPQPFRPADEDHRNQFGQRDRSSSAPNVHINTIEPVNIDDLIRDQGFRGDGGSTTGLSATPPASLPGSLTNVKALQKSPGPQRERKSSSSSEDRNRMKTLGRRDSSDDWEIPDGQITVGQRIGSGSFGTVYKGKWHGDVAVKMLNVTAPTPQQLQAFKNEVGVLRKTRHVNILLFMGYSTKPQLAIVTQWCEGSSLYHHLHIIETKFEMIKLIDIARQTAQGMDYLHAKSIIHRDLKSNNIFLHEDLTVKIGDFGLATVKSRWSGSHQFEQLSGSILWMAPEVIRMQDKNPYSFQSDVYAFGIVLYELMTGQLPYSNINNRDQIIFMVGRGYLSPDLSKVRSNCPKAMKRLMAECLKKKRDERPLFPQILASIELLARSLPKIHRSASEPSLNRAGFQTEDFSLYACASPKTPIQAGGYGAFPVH
Sequence of UniProt O75582 (whole entry, looked up): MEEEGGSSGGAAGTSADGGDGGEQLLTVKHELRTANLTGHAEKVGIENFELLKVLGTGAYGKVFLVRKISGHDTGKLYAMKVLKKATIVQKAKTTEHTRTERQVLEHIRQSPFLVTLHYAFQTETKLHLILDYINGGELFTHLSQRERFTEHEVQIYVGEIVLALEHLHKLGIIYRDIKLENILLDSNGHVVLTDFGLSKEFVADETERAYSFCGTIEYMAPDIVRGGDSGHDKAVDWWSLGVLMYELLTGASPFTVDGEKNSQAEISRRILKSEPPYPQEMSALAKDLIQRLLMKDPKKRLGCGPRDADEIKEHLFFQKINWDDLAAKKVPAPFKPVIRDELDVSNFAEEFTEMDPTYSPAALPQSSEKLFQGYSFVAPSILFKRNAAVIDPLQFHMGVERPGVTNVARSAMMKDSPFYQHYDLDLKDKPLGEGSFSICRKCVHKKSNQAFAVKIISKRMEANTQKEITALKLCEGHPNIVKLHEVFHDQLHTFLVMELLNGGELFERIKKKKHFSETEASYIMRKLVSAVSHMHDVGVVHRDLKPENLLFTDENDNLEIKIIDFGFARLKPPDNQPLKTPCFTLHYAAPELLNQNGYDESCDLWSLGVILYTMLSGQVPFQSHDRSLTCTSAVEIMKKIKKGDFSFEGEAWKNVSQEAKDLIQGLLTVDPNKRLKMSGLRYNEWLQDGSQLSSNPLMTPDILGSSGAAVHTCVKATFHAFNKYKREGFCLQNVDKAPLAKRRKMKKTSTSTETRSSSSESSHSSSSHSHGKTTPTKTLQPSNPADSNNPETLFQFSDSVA
Sequence of UniProt Q6P2M8 (whole entry, looked up): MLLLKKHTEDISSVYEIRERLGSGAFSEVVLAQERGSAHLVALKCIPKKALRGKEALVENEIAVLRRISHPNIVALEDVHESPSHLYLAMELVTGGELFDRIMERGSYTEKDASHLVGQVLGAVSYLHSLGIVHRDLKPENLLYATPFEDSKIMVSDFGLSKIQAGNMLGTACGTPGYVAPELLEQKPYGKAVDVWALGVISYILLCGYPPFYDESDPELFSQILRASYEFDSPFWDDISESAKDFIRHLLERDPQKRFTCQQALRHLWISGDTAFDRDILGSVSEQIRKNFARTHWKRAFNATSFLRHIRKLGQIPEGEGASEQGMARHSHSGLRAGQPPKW
Sequence of UniProt P31152 (whole entry, looked up): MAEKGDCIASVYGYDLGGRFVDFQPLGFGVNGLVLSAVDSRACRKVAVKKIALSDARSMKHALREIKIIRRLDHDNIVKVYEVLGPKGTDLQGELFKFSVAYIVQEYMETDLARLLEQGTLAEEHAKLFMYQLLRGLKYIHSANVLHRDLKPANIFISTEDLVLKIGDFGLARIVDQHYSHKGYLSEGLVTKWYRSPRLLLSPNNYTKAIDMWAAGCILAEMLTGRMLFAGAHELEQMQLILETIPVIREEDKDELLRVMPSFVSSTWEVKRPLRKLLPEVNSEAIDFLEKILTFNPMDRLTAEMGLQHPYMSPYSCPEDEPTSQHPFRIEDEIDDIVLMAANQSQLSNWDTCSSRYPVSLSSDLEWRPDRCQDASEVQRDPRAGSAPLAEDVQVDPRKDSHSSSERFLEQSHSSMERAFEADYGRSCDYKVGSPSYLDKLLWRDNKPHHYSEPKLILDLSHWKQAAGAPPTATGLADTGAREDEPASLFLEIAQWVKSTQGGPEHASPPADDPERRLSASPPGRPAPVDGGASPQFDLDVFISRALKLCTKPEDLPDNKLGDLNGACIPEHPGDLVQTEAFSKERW
Sequence of UniProt O43318 (whole entry, looked up): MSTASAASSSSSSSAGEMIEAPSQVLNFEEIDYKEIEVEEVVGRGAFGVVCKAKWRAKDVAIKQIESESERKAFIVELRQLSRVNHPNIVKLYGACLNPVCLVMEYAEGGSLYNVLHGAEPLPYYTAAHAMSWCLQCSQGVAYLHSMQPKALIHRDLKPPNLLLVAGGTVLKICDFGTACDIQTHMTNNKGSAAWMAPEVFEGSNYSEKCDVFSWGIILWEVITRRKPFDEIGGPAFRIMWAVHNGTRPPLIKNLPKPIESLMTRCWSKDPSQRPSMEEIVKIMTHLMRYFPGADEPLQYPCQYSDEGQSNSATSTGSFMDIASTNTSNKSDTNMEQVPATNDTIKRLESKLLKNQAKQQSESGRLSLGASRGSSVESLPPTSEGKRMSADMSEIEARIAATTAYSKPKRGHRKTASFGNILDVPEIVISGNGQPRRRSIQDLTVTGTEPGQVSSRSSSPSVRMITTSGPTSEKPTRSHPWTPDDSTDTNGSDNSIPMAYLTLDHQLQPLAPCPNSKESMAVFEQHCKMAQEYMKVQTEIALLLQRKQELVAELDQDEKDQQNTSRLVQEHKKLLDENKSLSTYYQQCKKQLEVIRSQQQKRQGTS
Sequence of UniProt Q13882 (whole entry, looked up): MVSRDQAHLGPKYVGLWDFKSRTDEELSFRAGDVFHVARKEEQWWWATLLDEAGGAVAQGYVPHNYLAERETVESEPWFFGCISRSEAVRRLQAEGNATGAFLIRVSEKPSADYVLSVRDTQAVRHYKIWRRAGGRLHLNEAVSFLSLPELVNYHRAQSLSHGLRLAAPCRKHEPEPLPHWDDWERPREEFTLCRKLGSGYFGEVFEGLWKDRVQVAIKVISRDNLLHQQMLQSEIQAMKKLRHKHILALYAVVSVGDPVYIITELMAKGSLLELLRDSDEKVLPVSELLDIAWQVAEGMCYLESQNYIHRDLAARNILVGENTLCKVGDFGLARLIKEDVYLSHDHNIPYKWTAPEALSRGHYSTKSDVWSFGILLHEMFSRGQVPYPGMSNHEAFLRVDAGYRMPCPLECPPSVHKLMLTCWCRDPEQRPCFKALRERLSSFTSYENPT
Sequence of UniProt P49840 (whole entry, looked up): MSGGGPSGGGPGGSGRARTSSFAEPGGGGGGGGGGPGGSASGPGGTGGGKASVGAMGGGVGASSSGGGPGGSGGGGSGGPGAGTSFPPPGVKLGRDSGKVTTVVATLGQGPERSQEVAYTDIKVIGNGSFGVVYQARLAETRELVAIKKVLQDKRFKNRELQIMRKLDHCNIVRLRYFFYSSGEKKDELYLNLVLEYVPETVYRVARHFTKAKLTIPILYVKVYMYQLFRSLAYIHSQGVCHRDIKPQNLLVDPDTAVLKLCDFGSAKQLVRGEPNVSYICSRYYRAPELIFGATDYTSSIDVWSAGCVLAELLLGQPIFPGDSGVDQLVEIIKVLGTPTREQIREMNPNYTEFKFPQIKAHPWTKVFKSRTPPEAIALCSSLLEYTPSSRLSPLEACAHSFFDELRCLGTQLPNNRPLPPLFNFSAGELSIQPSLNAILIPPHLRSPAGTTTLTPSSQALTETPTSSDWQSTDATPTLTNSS

Set 1
Target: Activin receptor type-1 (ACVR1, Homo sapiens, UniProt Q04771)
Effect on: enzyme activity
Mode: inhibitor
Concentration: 0.5 µM
Baseline: control
Residues (Q04771 1-509): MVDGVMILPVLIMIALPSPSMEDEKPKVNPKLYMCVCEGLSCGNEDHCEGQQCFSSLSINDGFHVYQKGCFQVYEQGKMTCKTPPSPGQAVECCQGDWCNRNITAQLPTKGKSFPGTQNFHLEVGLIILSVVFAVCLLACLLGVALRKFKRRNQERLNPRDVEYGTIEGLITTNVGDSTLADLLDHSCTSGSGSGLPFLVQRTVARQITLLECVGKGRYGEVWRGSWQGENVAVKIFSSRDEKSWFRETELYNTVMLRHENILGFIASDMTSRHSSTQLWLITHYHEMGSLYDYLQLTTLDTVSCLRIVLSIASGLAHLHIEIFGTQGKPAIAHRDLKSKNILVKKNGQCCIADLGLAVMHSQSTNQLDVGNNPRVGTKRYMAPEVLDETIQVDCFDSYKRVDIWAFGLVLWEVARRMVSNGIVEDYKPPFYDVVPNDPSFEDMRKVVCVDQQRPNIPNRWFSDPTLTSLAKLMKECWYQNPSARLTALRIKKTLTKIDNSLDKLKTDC
Compound	remaining activity [%]
CC(=O)c1ccc(N2CCOCC2)cc1O	107
O=C1Cc2c([nH]c3ccc([N+](=O)[O-])cc23)-c2ccccc2N1	79.7
CC[n+]1c(/C=C/N(C)c2ccccc2)n(-c2ccccc2)c2ccc(-c3nc4ccccc4s3)cc21	103
Cc1ccc(NC2=CC(=O)c3sc(C)nc3C2=O)cc1	99.1
CC#CC(=O)Nc1cc2c(Nc3ccc(F)c(Cl)c3)ncnc2cn1	105
Nc1nc(Nc2ccc(S(N)(=O)=O)cc2)nn1C(=O)c1c(F)cccc1F	104
Nc1ncnc2c1cnn2-c1ccccc1	101
Fc1ccc(-c2nc3n(c2-c2ccncc2)CCS3)cc1	94.2
O=C1NC(=O)C(c2c[nH]c3ccccc23)=C1c1c[nH]c2ccccc12	97.1
CCc1[nH]c(-c2ccc(OC)cc2)nc1-c1ccncc1	95.8
COc1cc(Nc2c(C#N)cnc3cc(OCCCN4CCN(C)CC4)c(OC)cc23)c(Cl)cc1Cl	93.3
O=S(=O)(NCCNC/C=C/c1ccc(Br)cc1)c1cccc2cnccc12	96.4
Cc1cncc2cccc(S(=O)(=O)N3CCCN(C(=O)CN)C[C@@H]3C)c12	95.8
NC(=O)c1ccc(N(C(N)=O)c2c(F)cccc2F)nc1-c1ccc(F)cc1F	105
N#CC(=C(N)Sc1ccc(N)cc1)c1ccccc1C(F)(F)F	101
CC(C)(C)n1nc(Cc2cccc3ccccc23)c2c(N)ncnc21	106
Cc1cc(Nc2nc(-c3ccccc3)nc3ccccc23)n[nH]1	149
Oc1ccc(Nc2nc(-c3ccc(Cl)cc3)cs2)cc1	94.9
CSc1nc(-c2ccnc(N[C@@H](C)c3ccccc3)c2)c(-c2ccc(F)cc2)[nH]1 (racemic)	89.3
CCCC(=O)Oc1ccc2[nH]c(C(=O)c3cc4ccccc4[nH]3)cc2c1	100
COc1ccc(S(=O)(=O)N(CCO)c2ccccc2CN(C)CC=Cc2ccc(Cl)cc2)cc1	90.6
Nc1nccc(-c2c(-c3ccc(F)cc3)ncn2C2CCNCC2)n1	86.5

Set 2
SMILES: O=C1CCC(N2Cc3cc(C4CCN(Cc5ccccc5)CC4)ccc3C2=O)C(=O)N1 (centres unmarked)
Target: CRBN/Zinc finger protein Helios (Homo sapiens, UniProt Q96SW2+Q9UKS7)
Sequence of UniProt Q96SW2 (whole entry, looked up): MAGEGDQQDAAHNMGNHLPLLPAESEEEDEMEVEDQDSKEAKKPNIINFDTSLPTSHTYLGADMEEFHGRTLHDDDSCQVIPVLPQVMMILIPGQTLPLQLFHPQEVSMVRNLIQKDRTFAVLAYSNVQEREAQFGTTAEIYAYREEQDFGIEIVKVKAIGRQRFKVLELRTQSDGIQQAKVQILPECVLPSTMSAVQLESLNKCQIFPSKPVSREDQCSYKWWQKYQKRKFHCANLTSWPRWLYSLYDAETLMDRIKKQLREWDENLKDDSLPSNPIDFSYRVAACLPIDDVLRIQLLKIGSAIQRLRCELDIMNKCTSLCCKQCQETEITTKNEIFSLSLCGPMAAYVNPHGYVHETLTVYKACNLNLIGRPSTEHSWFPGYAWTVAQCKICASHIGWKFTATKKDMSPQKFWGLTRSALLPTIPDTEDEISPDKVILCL
Sequence of UniProt Q9UKS7 (whole entry, looked up): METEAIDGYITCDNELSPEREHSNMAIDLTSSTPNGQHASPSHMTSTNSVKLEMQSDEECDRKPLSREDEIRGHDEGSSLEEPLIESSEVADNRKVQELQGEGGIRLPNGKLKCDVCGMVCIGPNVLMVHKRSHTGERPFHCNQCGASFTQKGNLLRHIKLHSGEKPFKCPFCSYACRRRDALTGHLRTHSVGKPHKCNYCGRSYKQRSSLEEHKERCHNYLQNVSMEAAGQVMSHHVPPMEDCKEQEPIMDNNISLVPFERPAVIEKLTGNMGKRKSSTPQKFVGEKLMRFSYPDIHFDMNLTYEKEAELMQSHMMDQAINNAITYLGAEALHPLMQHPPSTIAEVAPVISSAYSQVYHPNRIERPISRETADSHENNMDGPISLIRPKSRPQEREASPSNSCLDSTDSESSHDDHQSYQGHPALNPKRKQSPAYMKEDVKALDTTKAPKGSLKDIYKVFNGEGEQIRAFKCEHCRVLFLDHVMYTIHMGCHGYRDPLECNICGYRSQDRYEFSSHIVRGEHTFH
Mode: degrader
Cell line: HEK293
technique	concentration	time	protein remaining [%]
HiBiT kinetics	12.35 nM	3 h	39.8
HiBiT	333.3 nM	6 h	35.8
HiBiT kinetics	1.372 nM	1 h	84.4
HiBiT kinetics	0.01694 nM	3 h	108
HiBiT kinetics	4.115 nM	1 h	83.9
HiBiT kinetics	0.4572 nM	3 h	75.6
HiBiT kinetics	333.3 nM	0.5 h	82.9
HiBiT	4.115 nM		49.5
HiBiT kinetics	4.115 nM	0.5 h	96.5
HiBiT	4.115 nM	6 h	49.5
HiBiT	333.3 nM		35.8
HiBiT	1.372 nM		70
HiBiT	111.1 nM		41.4
HiBiT	1000 nM	6 h	36.8
HiBiT kinetics	111.1 nM	3 h	29.7
HiBiT	0.1524 nM		95.1

Set 3
Species: human
Matrix: microsomes or S9
Concentration: 2 µM
Time: 0.5 h
SMILES	remaining compound [%]
COc1c(Br)cc(OCCc2c(O)nc(C)c(Br)c2O)cc1Br	0.235
COc1ccc(CC(=O)OCCn2cc(Br)ccc2=O)nc1	27.8
CCC(=O)c1ccc(CCCCCC(=O)O)s1	19.5
COc1cc(-c2csc(N)n2)cc(Br)c1O	44.9
Cc1ccc(C2c3nc[nH]c3CCN2C(=O)Nc2ccc(C#N)cc2)cc1F (centres unmarked)	39.9
c1ccc(COc2ccccc2-c2cscn2)cc1	3.92
Cc1nnc2c(N3CCN(C(=O)c4n[nH]c5c4CCCC5)CC3)nccn12	0
COc1ccc(-c2c(-c3ccccc3)nn(-c3ccc(Cl)cc3Cl)c2N(C)C)cc1OC	3.73
CC(C)COc1cc(=O)n2c(c1C(=O)N(C)CCc1ccccn1)CCCCC2	49.8
CCOc1cc(=O)n2c(c1C(=O)NCc1ccc(F)cc1Cl)CCCC2	1.28
Cc1nc(-c2nn(C)c(C)c2Cl)n(-c2ccc(F)cc2F)n1	53.8
CCOc1ccccc1NC(=O)c1cc2sccc2n1C	0.137
CNC(=O)c1cc(Br)nn1-c1ncccc1Cl	> 100
CC(C)(C)OC(=O)NC(CC(=O)N1CCCCN1)Cc1ccccc1F (centres unmarked)	3.34
COCCOc1cc(=O)n2c(c1C(=O)NC1CCCCCC1)CCOCC2	62.1
Cc1cc(C)c(S(=O)(=O)N2CCN(c3cc(C)nc(N4CCCC4)n3)CC2)c(C)c1	0.0567
O=C1NCCNC1Cc1ccc(-c2cccc(F)c2F)cc1 (centres unmarked)	79.4
Cc1c(-c2noc(-c3cnn(C)c3C)c2Cl)cnn1C	0.201
O=c1c2c(ccn1Cc1cc(F)ccc1F)ccn2Cc1cccnc1	69.9
Cn1c(=O)n(-c2ccccn2)c(=O)c2c3c(sc21)COC(C)(C)C3	92.4

Set 4
Structure (SMILES): N#Cc1ccc(Nc2ccc3[nH]c(=O)[nH]c3c2)c(Cl)c1
Technique: competition with immobilised ligand
Concentration: 1 µM
target	effect on	remaining binding [%]
Serine/threonine-protein kinase 17B (STK17B, Homo sapiens, UniProt O94768)	cell-free assay	100
Serine/threonine-protein kinase 35 (STK35, Homo sapiens, UniProt Q8TDR2)	cell-free assay	100
Ephrin type-B receptor 3 (EPHB3, Homo sapiens, UniProt P54753)	cell-free assay	100
Mitogen-activated protein kinase 4 (MAPK4, Homo sapiens, UniProt P31152)	cell-free assay	100
LIM domain kinase 1 (LIMK1, Homo sapiens, UniProt P53667)	cell-free assay	100
Serine/threonine-protein kinase B-raf (BRAF, Homo sapiens, UniProt P15056)	cell-free assay	100
Serine/threonine-protein kinase MAK (MAK, Homo sapiens, UniProt P20794)	binding	100
Tyrosine-protein kinase Fes/Fps (FES, Homo sapiens, UniProt P07332)	cell-free assay	100
Mitotic checkpoint serine/threonine-protein kinase BUB1 (BUB1, Homo sapiens, UniProt O43683)	cell-free assay	100
Ribosomal protein S6 kinase alpha-5, C-terminal kinase domain (RPS6KA5, Homo sapiens, UniProt O75582)	cell-free assay	100
Membrane-associated tyrosine- and threonine-specific cdc2-inhibitory kinase (PKMYT1, Homo sapiens, UniProt Q99640)	cell-free assay	100
SRSF protein kinase 3 (SRPK3, Homo sapiens, UniProt Q9UPE1)	cell-free assay	100
Tyrosine-protein kinase ABL1, non-phosphorylated (ABL1, Homo sapiens, UniProt P00519, T315I)	cell-free assay	90
Macrophage colony-stimulating factor 1 receptor (CSF1R, Homo sapiens, UniProt P07333)	cell-free assay	97
Calcium/calmodulin-dependent protein kinase type 1B (PNCK, Homo sapiens, UniProt Q6P2M8)	cell-free assay	78
Serine/threonine-protein kinase B-raf (BRAF, Homo sapiens, UniProt P15056, V600E)	cell-free assay	100
Mitogen-activated protein kinase kinase kinase kinase 3 (MAP4K3, Homo sapiens, UniProt Q8IVH8)	cell-free assay	88
Cyclin-dependent kinase 7 (CDK7, Homo sapiens, UniProt P50613)	cell-free assay	99
Glycogen synthase kinase-3 alpha (GSK3A, Homo sapiens, UniProt P49840)	cell-free assay	100
Mitogen-activated protein kinase kinase kinase 7 (MAP3K7, Homo sapiens, UniProt O43318)	cell-free assay	90
Serine/threonine-protein kinase 24 (STK24, Homo sapiens, UniProt Q9Y6E0)	cell-free assay	100
Protein-tyrosine kinase 6 (PTK6, Homo sapiens, UniProt Q13882)	cell-free assay	100
Tyrosine-protein kinase Tec (TEC, Homo sapiens, UniProt P42680)	binding	96
Serine/threonine-protein kinase Sgk1 (SGK1, Homo sapiens, UniProt O00141)	cell-free assay	100
Receptor-type tyrosine-protein kinase FLT3 (FLT3, Homo sapiens, UniProt P36888, R834Q)	cell-free assay	90

Excerpt of the above (set 4):
target	effect on	remaining binding [%]
Serine/threonine-protein kinase MAK (MAK, Homo sapiens, UniProt P20794)	binding	100
Cyclin-dependent kinase 7 (CDK7, Homo sapiens, UniProt P50613)	cell-free assay	99
Tyrosine-protein kinase Fes/Fps (FES, Homo sapiens, UniProt P07332)	cell-free assay	100
Glycogen synthase kinase-3 alpha (GSK3A, Homo sapiens, UniProt P49840)	cell-free assay	100
Mitogen-activated protein kinase kinase kinase 7 (MAP3K7, Homo sapiens, UniProt O43318)	cell-free assay	90
Receptor-type tyrosine-protein kinase FLT3 (FLT3, Homo sapiens, UniProt P36888, R834Q)	cell-free assay	90
Serine/threonine-protein kinase 35 (STK35, Homo sapiens, UniProt Q8TDR2)	cell-free assay	100
Mitogen-activated protein kinase kinase kinase kinase 3 (MAP4K3, Homo sapiens, UniProt Q8IVH8)	cell-free assay	88
Serine/threonine-protein kinase Sgk1 (SGK1, Homo sapiens, UniProt O00141)	cell-free assay	100
Mitogen-activated protein kinase 4 (MAPK4, Homo sapiens, UniProt P31152)	cell-free assay	100
Tyrosine-protein kinase ABL1, non-phosphorylated (ABL1, Homo sapiens, UniProt P00519, T315I)	cell-free assay	90
Membrane-associated tyrosine- and threonine-specific cdc2-inhibitory kinase (PKMYT1, Homo sapiens, UniProt Q99640)	cell-free assay	100
